{"data": "Measurements gathered from unrelated publications", "note": "Protocols differ between the studies behind these lines. Numbers after ± are the reported error."}
{"Substance": "CC(C)(Sc1ccncc1-c1ccc(C#N)c2ccccc12)C(=O)O", "system": "human, male, Japanese, plasma", "conditions": "oral, 2.5 mg, day 1, fasted, single dose", "quantity": "t1/2", "value": "10.4 h"}
{"Substance": "CCCC[C@@H]1NC(=O)[C@@H](NC(=O)[C@H](CCC(=O)O)NC(=O)CNC(=O)CN2CCN(CC(=O)O)CCN(CC(=O)O)CCN(CC(=O)O)CC2)CCCCNC(=O)C[C@@H](C(N)=O)NC(=O)[C@H](C(C)C)NC(=O)[C@@H]2CCCN2C(=O)[C@H](CCCNC(=N)N)NC(=O)CNC(=O)[C@H](Cc2c[nH]c3ccccc23)NC(=O)[C@H](CCCNC(=N)N)NC(=O)[C@@H](Cc2ccccc2)NC(=O)[C@H](Cc2c[nH]cn2)NC(=O)[C@H](CCC(=O)O)NC1=O [indium-111 labelled]", "system": "normal C57 mice, heart", "conditions": "intravenous, 0.037 MBq, 2 h", "quantity": "tissue uptake", "value": "0.04 ± 0.03 %ID/g"}
{"Substance": "acyl ghrelin (human)", "system": "mouse, wild type, cerebellum", "conditions": "intravenous, 10 min", "quantity": "brain/serum ratio", "value": "8.09 µL/g"}
{"Substance": "O=C(/C=C/c1ccc(O)c(O)c1)O[C@H](Cc1ccc(O)c(O)c1)C(=O)O", "assay": "UPLC-MS/MS", "system": "Wistar rat, microcirculation dysfunction model, plasma", "conditions": "oral, 100 mg/kg Salvia miltiorrhiza stem-leaf extract FT", "quantity": "CL/F", "value": "2670 ± 1190 mL/min/kg"}
{"Substance": "O=C(O)[C@H](c1ccccc1Cl)N1CCc2sccc2C1", "assay": "HPLC-MS/MS", "system": "feline EDTA plasma", "conditions": "48 h, -20 °C, storage stability", "quantity": "deviation from nominal", "value": "-6%"}
{"Substance": "Cn1cnc2c(F)c(Nc3ccc(Br)cc3Cl)c(C(=O)NOCCO)cc21", "assay": "population pharmacokinetic model", "system": "human, plasma", "conditions": "oral, dose not given", "quantity": "central volume of distribution/F", "value": "31.7 L"}
{"Substance": "CCCC[C@H](NC(C)=O)C(=O)N[C@H]1CCC(=O)NC[C@@H](C(=O)N[C@@H](Cc2c[nH]c3ccccc23)C(N)=O)NC(=O)[C@H](CCCNC(=N)N)NC(=O)[C@@H](Cc2ccccc2)NC(=O)[C@H](Cc2c[nH]cn2)NC1=O", "system": "beagle dog, female, plasma", "conditions": "subcutaneous, 1.5 mg/kg daily, day 1", "quantity": "AUC(0-last)", "value": "271 ng·h/mL"}
{"Substance": "O=C(Nc1nc2cccc(-c3ccc(CN4CCS(=O)(=O)CC4)cc3)n2n1)C1CC1", "system": "human male", "conditions": "oral, 25 mg twice daily, steady state, mean", "quantity": "terminal half-life", "value": "3.82 h"}
{"Substance": "O=C(c1cccnc1-c1ccncc1)N1CCC(O)(Cc2ccccc2)CC1", "system": "healthy human, urine", "conditions": "oral, 600 mg once daily, day 1, arithmetic mean", "quantity": "renal clearance", "value": "5.67 mL/min"}
{"Substance": "COC(=O)c1ccc2c(c1)NC(=O)/C2=C(\\Nc1ccc(N(C)C(=O)CN2CCN(C)CC2)cc1)c1ccccc1", "system": "human mild liver impairment, plasma", "conditions": "oral, 150 mg twice daily, geometric mean", "quantity": "AUC(tau) steady state", "value": "445 ng·h/mL"}
{"Substance": "CC(=O)N[C@@H](CCCNC(=N)N)C(=O)N[C@@H](C)C(=O)N[C@@H](CC(=O)O)C(=O)N[C@@H](C)C(=O)N[C@@H](CCCNC(=N)N)C(=O)N[C@@H](C)C(=O)N[C@@H](CC(=O)O)C(=O)N[C@@H](C)C(=O)N[C@@H](CCCNC(=N)N)C(=O)N[C@@H](C)C(=O)N[C@@H](CC(=O)O)C(=O)N[C@@H](C)C(=O)N[C@@H](CCCNC(=N)N)C(=O)N[C@@H](C)C(=O)N[C@@H](CC(=O)O)C(=O)N[C@@H](C)C(N)=O", "assay": "rotational rheometry", "system": "2.5% w/v aqueous solution", "conditions": "shear rate range 1-1000 s^-1", "quantity": "viscosity", "value": "2510 ± 68.1 Pa·s"}
{"Substance": "CNCCC(Oc1ccc(C(F)(F)F)cc1)c1ccccc1 (stereo not shown)", "assay": "rapid equilibrium dialysis", "system": "pooled human plasma", "conditions": "4 h, together with: cassette with gefitinib, losartan", "quantity": "fraction unbound", "value": 0.08}
{"Substance": "CNC(=O)c1ccc(-c2cnc3ncc(Cc4ccc5ncccc5c4)n3n2)cc1F", "system": "human, mild hepatic impairment (Child-Pugh A), plasma", "conditions": "oral, 200 mg single dose", "quantity": "half-life (mean)", "value": "6.38 h"}
{"Substance": "CS(=O)(=O)n1cc2c(n1)CN([C@H]1CO[C@H](c3cc(F)ccc3F)[C@@H](N)C1)C2", "system": "human, plasma", "conditions": "oral, single low doses", "quantity": "beta-phase half-life", "value": "93 to 116 h"}
{"Substance": "CNC(=O)c1cc(Oc2ccc(NC(=O)Nc3ccc(Cl)c(C(F)(F)F)c3)cc2)ccn1", "system": "nude mouse, MHCC97H tumour xenograft, subcutaneous tumour", "conditions": "intratumoral, ETS-1 siRNA", "quantity": "half-life", "value": "30.8 ± 1.06 h"}
{"Substance": "NC(=O)N1CCC(CC(=O)N2CCC([C@H]3c4ncc(Br)cc4CCc4cc(Cl)cc(Br)c43)CC2)CC1", "system": "human, plasma", "conditions": "oral, 150 mg twice daily, cycle 1 day 15, together with: gemcitabine 750 mg/m2", "quantity": "AUC(tau)", "value": "5790 ng·h/mL"}
{"Substance": "CCCOc1ccc([C@H]2CNC(=O)N2c2ccc3[nH]cnc3c2)cc1", "system": "human volunteers fasted, plasma", "conditions": "oral solution, 100 mg single dose, day 1, geometric mean", "quantity": "effective half-life", "value": "2.16 h"}
{"Substance": "CC(C)NC[C@@H](C(=O)N1CCN(c2ncnc3c2[C@H](C)C[C@H]3O)CC1)c1ccc(Cl)cc1", "system": "human, Mild hepatic function, plasma", "conditions": "oral, 100 mg single dose, NCI classification, geometric mean", "quantity": "apparent clearance", "value": "191 L/h"}
{"Substance": "Cn1c(-c2ccc(C(N)=O)cc2F)nnc1C(C)(C)Oc1c(F)cc(Cl)cc1F", "system": "young non-Japanese subjects, plasma", "conditions": "oral, 20 mg single dose, day 1", "quantity": "AUC(0-inf) range", "value": "1710 to 4620 ng·h/mL"}
{"Substance": "C=CC(=O)N1CCC([C@@H]2CCNc3c(C(N)=O)c(-c4ccc(Oc5ccccc5)cc4)nn32)CC1", "system": "Chinese patients, plasma", "conditions": "oral, 160 mg twice daily, week 2 day 1, steady state", "quantity": "AUC(0-8h)", "value": "631 ng·h/mL"}
{"Substance": "CC(=O)N[C@@H](Cc1ccccc1)C(=O)N[C@H]1CCCNC(=O)[C@H](CCCNC(=N)N)NC(=O)[C@H](Cc2c[nH]c3ccccc23)NC(=O)[C@@H](CC2CCCCC2)NC(=O)[C@@H]2CCCN2C1=O", "system": "C57BL/6J mice, brain", "conditions": "subcutaneous, 1 mg/kg", "quantity": "absorption half-life", "value": "7.16 min"}
{"Substance": "Cc1nc2cccc(OCC(C)(C)C(=O)NC(C)C)c2c(N)c1C(=O)O", "system": "Sprague-Dawley rat, male, plasma", "conditions": "oral, 10 mg/kg, day 7", "quantity": "Tmax", "value": "0.5 h"}
{"Substance": "O=C(O)Cc1ccccc1Nc1c(Cl)cc(F)cc1Cl", "system": "human liver microsomes", "conditions": "30 min, together with: NADPH", "quantity": "remaining compound", "value": "99 ± 1.2%"}
{"Substance": "C[C@@H]1C[C@@H](n2cnc(C(N)=O)c2N)[C@H](O)[C@H]1O", "system": "mouse, plasma", "conditions": "oral vs intravenous", "quantity": "oral bioavailability", "value": "~30%"}
{"Substance": "CCCCOCCOc1ccc(-c2ccc3c(c2)/C=C(/C(=O)Nc2ccc([S@@+]([O-])Cc4cncn4CCC)cc2)CCCN3CC(C)C)cc1", "system": "human, controls matched to mild impairment", "conditions": "oral, 150 mg", "quantity": "effective half-life", "value": "21.2 h"}
{"Substance": "CC1=C2C[C@H]3[C@@H](CC[C@@H]4C[C@H](NS(C)(=O)=O)CC[C@@]43C)[C@@H]2CC[C@@]2(C1)O[C@@H]1C[C@H](C)CN[C@H]1[C@H]2C", "system": "patients, plasma", "conditions": "oral, 180 mg daily, day 22, cycle 1", "quantity": "AUC(0-24)", "value": "12800 ng·h/mL"}
{"Substance": "COc1cccc(N2CCN(C3=Nc4c(F)cccc4[C@H](CC(=O)O)N3c3cc(C(F)(F)F)ccc3OC)CC2)c1", "assay": "UHPLC-MS/MS", "system": "healthy women, plasma", "conditions": "intravenous infusion, 120 mg single dose, 30 min infusion, HPβCD formulation", "quantity": "volume of distribution", "value": "158 ± 44.6 L"}
{"Substance": "Cc1cc(C)c2c(c1)[C@@H](N(Cc1cc(C(F)(F)F)cc(C(F)(F)F)c1)c1nnn(C)n1)CCCN2C[C@H]1CC[C@H](C(=O)O)CC1", "assay": "LC-MS/MS", "system": "human, plasma", "conditions": "oral, 300 mg once daily, steady state", "quantity": "t1/2", "value": "37.1 h"}
{"Substance": "CC1(C)C(=CC=C2CCCC(C=CC3=[N+](CCCCS(=O)(=O)[O-])c4ccccc4C3(C)C)=C2Cl)N(CCCCCC(=O)O)c2ccccc21", "assay": "NIR fluorescence imaging", "system": "nude mouse, MCF7 xenograft", "conditions": "17 nmol/mouse, 8 d", "scale": "baseline: Cy7", "quantity": "tumour fluorescence per volume", "value": "~2 fold"}
{"Substance": "O=C1N=C(N2CCOCC2)CN1c1ccc(Cl)cc1", "system": "beagle dog, both sexes, plasma", "conditions": "oral, 30 mg/kg, tablets, fasted, day 5", "quantity": "Tmax", "value": "2.06 h"}
{"Substance": "des-acyl ghrelin (human)", "system": "mouse, wild type, striatum", "conditions": "intravenous, 10 min", "quantity": "brain/serum ratio", "value": "5.67 µL/g"}
{"Substance": "O=C(O)C[C@H](O)C[C@H](O)/C=C/c1c(C2CC2)nc2ccccc2c1-c1ccc(F)cc1", "system": "healthy Chinese female volunteers, plasma", "conditions": "oral, 2 mg once daily, multiple dose", "quantity": "volume of distribution", "value": "175 L"}
{"Substance": "C=C(C)[C@@H]1CC[C@]2(NCCN3CCS(=O)(=O)CC3)CC[C@]3(C)[C@H](CC[C@@H]4[C@@]5(C)CC=C(C6=CC[C@@](CF)(C(=O)O)CC6)C(C)(C)[C@@H]5CC[C@]43C)[C@@H]12", "system": "healthy human", "conditions": "oral, 400 mg, single ascending dose, geometric mean", "quantity": "t1/2", "value": "23.7 h"}
{"Substance": "CC(C)(c1ccc(O)cc1)c1ccc(O)cc1", "assay": "GC-MS", "system": "exposure tank water with snails, reconstituted water", "conditions": "250 ng/L nominal, 27 °C", "quantity": "half-life", "value": "2.53 h"}
{"note": "Repeated from above:"}
{"Substance": "Cn1cnc2c(F)c(Nc3ccc(Br)cc3Cl)c(C(=O)NOCCO)cc21", "assay": "population pharmacokinetic model", "system": "human, plasma", "conditions": "oral, dose not given", "quantity": "central volume of distribution/F", "value": "31.7 L"}
{"Substance": "CC(C)(Sc1ccncc1-c1ccc(C#N)c2ccccc12)C(=O)O", "system": "human, male, Japanese, plasma", "conditions": "oral, 2.5 mg, day 1, fasted, single dose", "quantity": "t1/2", "value": "10.4 h"}
{"Substance": "CCCCOCCOc1ccc(-c2ccc3c(c2)/C=C(/C(=O)Nc2ccc([S@@+]([O-])Cc4cncn4CCC)cc2)CCCN3CC(C)C)cc1", "system": "human, controls matched to mild impairment", "conditions": "oral, 150 mg", "quantity": "effective half-life", "value": "21.2 h"}
